Measurements from different studies.
Numbered parts are unrelated; each lists some results of a single study.

Sample 1
Target: Interferon regulatory factor 5, full length, phosphomimetic (IRF5, Homo sapiens, UniProt Q13568-2, residues 1-514, S451D/S453D/S456D/S462D)
Method: protein-binding microarray
Molecule type: double-stranded DNA, one strand shown
Matrix: in vitro
Concentration: 940 nM top
Setting: 60-bp whole probe
Together with: salmon DNA 0.4 mg/ml
Relative to: random background probes
Direction: higher = stronger binding
Measurement: fitted relative affinity
Shared flanks, not repeated: GCCTAGCAC … GTCTTGATTCGCTTGACGCTGCTG
AACGATATCAGTATCGAGACGTGCTAG: 1.62 z-score
ATTCTCTTCTTGCATCTGGGTGTGCTA: 1.82 z-score
GACGGTTTCTTACTGCTGACGTGCTAG: 1.55 z-score
AGTTTTTACTTTCTGAATGCGTGCTAG: 1.93 z-score
TCAAAAAAAAAAAACTGTACTGTGCTA: -0.0109 z-score
GACGGTTTCGACACTGGGGATGTGCTA: 6.8 z-score
CCGTGTTTCTCAACCATTTTGTGCTAG: 0.796 z-score
TTAGGTAGCGGTTTCGGTTAGTGCTAG: 6.93 z-score
GACGCACTGGACACTGGGGACGTGCTA: -0.371 z-score
AACGATCTCAGTTTCGAGACGTGCTAG: 3.75 z-score
GGCGGACTGGACACTGGGGACGTGCTA: -0.842 z-score
TACGGTATCGGTTTCGGGACGTGCTAG: 8.91 z-score
TTAGGACTGAGTATCGGTTAGTGCTAG: 4.01 z-score
TCATCTTTCACTGCTCCAACTGTGCTA: 1.69 z-score
CACGGTCTCGGTCTCGGGACGTGCTAG: 3.4 z-score
TCGTTATCCTATATCTGAACGTGCTAG: 0.473 z-score
TTAGGTACCGGGTTTCGGTTAGTGCTA: 5.64 z-score
GACGGTTCCCTTGTCCTGACGTGCTAG: 0.3 z-score
TTAGATATCAGACTTGATTAGTGCTAG: -0.195 z-score

Sample 2
Target: Max-binding protein MNT, bHLH-zipper, MAX partner unstated (MNT, Homo sapiens, UniProt Q99583, residues 220-300)
Method: protein-binding microarray
Molecule type: double-stranded DNA, one strand shown
Matrix: in vitro
Concentration: not given
Setting: k-mer, scored over probes, only values ≥0.25
Direction: higher = stronger binding
Measurement: E-score
Construct (chain): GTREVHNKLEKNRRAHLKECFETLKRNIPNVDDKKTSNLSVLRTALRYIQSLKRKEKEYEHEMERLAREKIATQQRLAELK
CTGTGGCC: 0.272
ACACGTTC: 0.332
GCCATGCC: 0.355
CACGCCGC: 0.391
CGCACGAC: 0.255
CACGCGCC: 0.432
CATGTAAC: 0.326
GCATGGTA: 0.389
CATGCCAA: 0.301
AGTCCACG: 0.363
ACGGGGGC: 0.285
GGATTAAC: 0.262
AACGTGGT: 0.45
ACCACGCA: 0.349
GCCCTCCC: 0.26
GCGAGCAC: 0.296
GCGTTTCC: 0.252
GCACTCCC: 0.268
CGTTTACC: 0.269

Sample 3
Target: RNA binding protein fox-1 homolog 2, RRM domain, GST-SBP tag (RBFOX2, Homo sapiens, UniProt O43251-10, residues 100-194)
Method: RNA Bind-n-Seq
Molecule type: RNA
Matrix: in vitro
Concentration: 365 nM
Setting: natural RNA segment, single round, ends assumed
Relative to: no-protein control
Direction: higher = stronger binding
Measurement: RBNS enrichment (R)
Shared flanks, not repeated: GGGAGUUCUACAGUCCGACGAUC … UGGAAUUCUCGGGUGCCAA
Target sequence (chain): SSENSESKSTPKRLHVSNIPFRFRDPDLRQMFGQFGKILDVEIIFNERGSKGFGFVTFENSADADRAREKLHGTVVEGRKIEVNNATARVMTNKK
UUCACUAUUUGGUUUAAUGUCAGGUCUGCUGGGGGUAAUGGUGGCCAAGAUCUCAAACUAGGGCUUCCGUCUGUGAUGAGGACGCCUCUGAAGAAAUCUCAAGCUCCCAA: 0.579
GGCUCCUUCAUCGAAUGCUAAACCUUUGAGUAGAGUCUCCCUGGAUCACAUACCAGGUCAGGGAGGAUCUGUUCUUCCUCUACGUUUAUCCUGGCAUGUGCUAGGGUAAA: 0.548
AGUUCUUUGGUUCUUUGCUGUUUCUAUUAACCCAUAGCAUUAUUUUAAUAAAUGUUAUAAUACCAACCUACUAACUCUGGACUAUGUUUGUUUAUUAACCUUUCCGUGUU: 0.637
GACCCUCCUCGGAGCGUCCAGAUCCCCUCCUGCUCUGCUCUAUUACCUACUAGUGGUCCCUGGCAGCUGUGGGCAAGGCCUGGGUAGUCAGACUGUUAACACCACAGUCC: 0.216
CACUUCCCUCUGUCCUAGUUCUCUUUGUCCAAUCAGAUGGCAAGGGCAGUGCGUGGAAAGGCCGGGGAGGUGCAGAAACCAGAGCCCAGGGCAAUGGUGUCUGUCCAGCC: 0.231
CACAUCCAUUGACUGACCCCCUCCUCCAGCAAUAGCAUCCAAGGGGCCUGGAAGUUAUGUUGUUCAAAGAAGCCUGGUGGCAAUAAGGAUCUUCCCACUUUGCCACUGGA: 0.382
CCCCAAGCCAGAGAGCCAGAAGCCAUCACCCAAUGACCGCCCCUUCCUUCCGGUCUACAAGAGCUCUCAAGGCUGGGUCUGCCACCACUCUGCUUUGCCCAAGUGUGACA: 0.88
AAGAAAAUCCUCCCAGGAGAACAUGGAGUCUUAGAGAUCUGGAAGAGAUCGGAGUUUGACUAGGUUUCCUGUCUGCAAGUCAAUUUUUUUUGUGAAAUUAUCUUGAUUUA: 2.55

Sample 4
Target: Ras GTPase-activating protein-binding protein 1, full length (G3BP1, Homo sapiens, UniProt Q13283)
Chain of UniProt Q13283 (whole entry, looked up): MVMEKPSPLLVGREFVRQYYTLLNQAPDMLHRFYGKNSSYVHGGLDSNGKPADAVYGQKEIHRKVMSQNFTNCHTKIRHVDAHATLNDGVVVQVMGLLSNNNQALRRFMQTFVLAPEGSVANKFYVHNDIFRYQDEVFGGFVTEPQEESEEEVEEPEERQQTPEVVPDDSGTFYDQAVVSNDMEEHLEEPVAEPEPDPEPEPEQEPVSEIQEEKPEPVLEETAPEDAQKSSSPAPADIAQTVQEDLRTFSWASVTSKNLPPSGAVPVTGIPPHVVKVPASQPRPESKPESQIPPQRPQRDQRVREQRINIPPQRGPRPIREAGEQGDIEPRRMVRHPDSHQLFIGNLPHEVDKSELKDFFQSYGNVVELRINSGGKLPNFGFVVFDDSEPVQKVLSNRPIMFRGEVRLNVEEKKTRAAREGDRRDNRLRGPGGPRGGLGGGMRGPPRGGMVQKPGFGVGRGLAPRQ
Method: RNA Bind-n-Seq
Molecule type: RNA
Matrix: in vitro
Concentration: 200 nM
Setting: whole 134-nt RNA, ends assumed
Together with: 150 mM LiCl
Relative to: input library
Direction: higher = stronger binding
Measurement: log2 enrichment
Library: 7-deaza-guanosine replaces G
Shared flanks, not repeated: GGGAGUUCUACAGUCCGACGAUC … UGGAAUUCUCGGGUGUCAAGG
GUCCUGUGCUACACAUCGUAUGUACCGAAUCAAACCCCCAAAUUUUUUUAAACCCAAAAAAGUAUUAUGUUACGCCGUUCGGAUCUGCAC: 1.54
GGUUUCUGGUGAGCUUCAUGGUUGACGCCCGGGGUGGUUCCAUGAGAGGAAGUCGCCACAACGGCCUGCGAGUGGUGAUCCCGCCACGGA: -3.97
CCUGUGCUACACAUCGUAUGUACCGAAUCGGCCCCCCGGGGCCCCCCGGGGCCCCCCGGGAAAGUAUUAUGUUACGCCGUUCGGAUCUGC: -2.68
AGUCCUGUGCUACACAUCGUAUGUACCGAAUCGGGUGGGUUUUUUUGGGAAAAAGGGAAAGUAUUAUGUUACGCCGUUCGGAUCUGCACU: -0.431
UGGGAGGUGGAUUUUGUUUAUUUUUUUAGCUCAUUUCCAGGGGUGGGAAUUUUUUUUUAAUAUGUGCCAUGAAUAAAGUUGUUUUUGAAA: 0.0363
GGCAGGAGGAAGAGCGCAGGCGCCGUGAAGAAGAGAUGCGGCGGCAGCAAGAAGAAAUGAUGCGGCGACAGCAGGAAGGAUUCAAGGGAA: 0.142
UGCGUGCUUGUGUCCUGGAGCUGGAAGAGCGGCUGAGCACGCAGGAGGGCUUGGUGCAAGAGCUUCAGAAAAAACAGGUGGAAUUGCAGG: 0.667
UCAAGUCCUGUGCUACACAUCGUAUGUACCGAAUCGGGUUUGGGAGGGUUUGGGAAAGUAUUAUGUUACGCCGUUCGGAUCUGCACUUCC: -0.251

Sample 5
Target: Sal-like protein 4, full length isoform A (SALL4, Homo sapiens, UniProt Q9UJQ4, residues 1-1053)
Chain of UniProt Q9UJQ4 (whole entry, looked up): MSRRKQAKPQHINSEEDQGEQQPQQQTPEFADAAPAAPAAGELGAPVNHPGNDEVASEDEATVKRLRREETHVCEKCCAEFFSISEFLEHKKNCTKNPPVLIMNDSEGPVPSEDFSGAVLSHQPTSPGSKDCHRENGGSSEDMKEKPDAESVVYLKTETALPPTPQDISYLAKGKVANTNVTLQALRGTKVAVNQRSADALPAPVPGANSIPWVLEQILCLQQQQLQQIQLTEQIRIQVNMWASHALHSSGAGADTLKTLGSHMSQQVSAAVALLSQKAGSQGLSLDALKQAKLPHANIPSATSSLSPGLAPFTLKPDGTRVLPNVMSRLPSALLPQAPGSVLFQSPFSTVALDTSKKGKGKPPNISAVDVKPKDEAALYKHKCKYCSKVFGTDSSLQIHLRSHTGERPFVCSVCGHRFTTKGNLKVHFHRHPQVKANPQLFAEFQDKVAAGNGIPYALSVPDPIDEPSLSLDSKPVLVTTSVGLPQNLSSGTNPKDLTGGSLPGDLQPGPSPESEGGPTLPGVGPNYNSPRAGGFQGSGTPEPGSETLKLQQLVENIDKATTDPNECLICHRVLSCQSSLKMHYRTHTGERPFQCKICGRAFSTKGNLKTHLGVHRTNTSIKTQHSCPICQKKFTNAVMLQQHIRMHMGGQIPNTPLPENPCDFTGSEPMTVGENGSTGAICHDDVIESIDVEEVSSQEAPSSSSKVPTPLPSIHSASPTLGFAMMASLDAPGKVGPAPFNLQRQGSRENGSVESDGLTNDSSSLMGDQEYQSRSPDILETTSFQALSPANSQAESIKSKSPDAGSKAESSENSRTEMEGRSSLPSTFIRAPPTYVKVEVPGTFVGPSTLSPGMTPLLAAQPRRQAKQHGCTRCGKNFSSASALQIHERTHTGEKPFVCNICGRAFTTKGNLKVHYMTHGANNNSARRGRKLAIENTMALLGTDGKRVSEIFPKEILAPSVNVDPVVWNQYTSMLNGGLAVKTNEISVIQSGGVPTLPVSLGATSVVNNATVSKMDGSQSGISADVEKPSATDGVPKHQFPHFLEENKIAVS
Method: universal PBM
Molecule type: double-stranded DNA, one strand shown
Matrix: in vitro
Concentration: 600 nM
Setting: 8-mer, flanks averaged, mean of replicates
Direction: higher = stronger binding
Measurement: E-score
CACCATAC: -0.0515
CGGACCCA: -0.22
GAATGCCC: -0.223
CGTCCAAC: 0.0398
AAGCCACT: -0.102
GTGTGAAC: -0.0892
CGATTCGC: -0.0977
AGCTTTTG: 0.0995
AACTTGAC: 0.0592
AGGCGGAG: -0.121
AAATCTAT: 0.302
ATTCCAAG: 0.163
CTCGAAAA: 0.0735
ACGTAAGC: -0.164
CACAACCG: -0.023
CCTGCAGC: -0.11
ACGGGGGC: -0.398
ATATGCTG: 0.153
GCATGAAC: -0.00843

For quick reference, copied from above (sample 1):
GGCGGACTGGACACTGGGGACGTGCTA: -0.842 z-score
TTAGATATCAGACTTGATTAGTGCTAG: -0.195 z-score
TCAAAAAAAAAAAACTGTACTGTGCTA: -0.0109 z-score
TACGGTATCGGTTTCGGGACGTGCTAG: 8.91 z-score
CACGGTCTCGGTCTCGGGACGTGCTAG: 3.4 z-score
CCGTGTTTCTCAACCATTTTGTGCTAG: 0.796 z-score
